Measured values pooled from the literature.
Protocols differ between the studies behind these lines. ± gives the spread as reported.
UniProt Q12809, sequence (whole entry, looked up): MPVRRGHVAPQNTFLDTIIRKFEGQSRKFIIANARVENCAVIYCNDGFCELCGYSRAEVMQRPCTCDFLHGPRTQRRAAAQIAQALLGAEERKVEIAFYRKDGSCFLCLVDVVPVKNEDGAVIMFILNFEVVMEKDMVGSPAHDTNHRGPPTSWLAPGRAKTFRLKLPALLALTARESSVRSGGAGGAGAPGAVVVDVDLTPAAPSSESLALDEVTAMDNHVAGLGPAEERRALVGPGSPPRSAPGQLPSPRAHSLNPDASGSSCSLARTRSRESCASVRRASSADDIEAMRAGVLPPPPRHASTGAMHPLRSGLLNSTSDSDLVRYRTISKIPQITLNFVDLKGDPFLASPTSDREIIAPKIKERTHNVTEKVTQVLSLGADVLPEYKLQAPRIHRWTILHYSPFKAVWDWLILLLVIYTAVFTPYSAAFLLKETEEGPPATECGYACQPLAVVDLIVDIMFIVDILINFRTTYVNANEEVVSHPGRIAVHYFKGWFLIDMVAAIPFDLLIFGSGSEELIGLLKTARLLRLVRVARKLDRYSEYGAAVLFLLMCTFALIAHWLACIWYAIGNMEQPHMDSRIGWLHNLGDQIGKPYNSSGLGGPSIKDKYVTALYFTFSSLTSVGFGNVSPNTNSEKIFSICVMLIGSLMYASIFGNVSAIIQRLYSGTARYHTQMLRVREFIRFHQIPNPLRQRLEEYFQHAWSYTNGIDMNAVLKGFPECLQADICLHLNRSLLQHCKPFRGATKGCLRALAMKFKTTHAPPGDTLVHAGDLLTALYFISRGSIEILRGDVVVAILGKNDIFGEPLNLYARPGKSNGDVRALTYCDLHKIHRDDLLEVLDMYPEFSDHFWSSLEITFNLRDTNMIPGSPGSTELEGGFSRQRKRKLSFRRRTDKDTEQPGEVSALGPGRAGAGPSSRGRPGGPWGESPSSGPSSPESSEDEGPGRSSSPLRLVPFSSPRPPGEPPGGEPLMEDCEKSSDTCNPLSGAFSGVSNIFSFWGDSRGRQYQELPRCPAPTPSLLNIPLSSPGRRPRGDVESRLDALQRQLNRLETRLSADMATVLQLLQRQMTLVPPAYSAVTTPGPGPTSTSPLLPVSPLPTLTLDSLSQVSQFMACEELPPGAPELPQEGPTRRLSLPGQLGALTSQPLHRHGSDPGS

SMILES | tested on | test | system | setting | endpoint | value
COc1cccc(C2(O)CCCCC2CN(C)C)c1.Cc1ccc(-c2cc(C(F)(F)F)nn2-c2ccc(S(N)(=O)=O)cc2)cc1.Cl (racemic) |  |  | healthy human, fasted | oral, dose not given | subjects with adverse events | 44.1%
CCCCCc1cc(O)c2c(c1)OC(C)(C)C1CCC(C)=CC21 (single isomer, unassigned; (-)) |  |  | HEK293 microsome incubation mixture |  | unbound fraction | 0.042 ± 0.003
CN[C@](C)(C[18F])C(=O)O | SK-OV-3 tumour model |  | host not given, blood | 1 h, tumour-bearing | tracer uptake | 1.2 %ID/g
CN(C)CC1CCCCC1(O)c1cccc(O)c1 (stereo not drawn) | P-glycoprotein |  | Caco-2 TC7 | 1 µM, 3 h, pH 7.4, together with: cyclosporin A 10 µM | Papp A to B | 18.2 ± 0.5 ×10⁻⁶ cm/s
O=C(O)CCC(NP(=O)(O)OCCC[C@@H](NC(=O)CCC(NC(=O)CCCCCNC(=O)c1ccc([18F])cc1)C(=O)O)C(=O)O)C(=O)O (stereo partly drawn) | PC-3 tumour model |  | host not given, kidney | intravenous, 2 h, tumour-bearing | tracer uptake | 19 %ID/g
CC[C@H](C)[C@H](NC(=O)[C@H](CC(=O)O)NC(=O)[C@@H](NC(=O)[C@@H]1CCCN1C(=O)[C@@H](N)CCCNC(=N)N)[C@@H](C)O)C(=O)N[C@@H](CCCCN)C(=O)N[C@H]1CSSC[C@@H]2NC(=O)[C@H](CCCCNC(=O)CCc3cn(CCOCCOCCOCCOCCOCCNC(=O)CCCCC[N+]4=C(/C=C/C=C/C=C5/N(C)c6ccccc6C5(C)C)C(C)(C)c5ccccc54)nn3)NC(=O)CNC(=O)[C@H](CC(N)=O)NC(=O)[C@H]([C@@H](C)O)NC(=O)[C@H](CCCCN)NC(=O)CNC(=O)[C@H](Cc3ccccc3)NC(=O)[C@H](CCCNC(=N)N)NC(=O)[C@H](CO)NC(=O)[C@H](CCCCN)NC(=O)[C@@H]3CSSC[C@@H](C(=O)N[C@@H](Cc4ccccc4)C(=O)O)NC(=O)[C@H](CC(=O)O)NC(=O)[C@H](CSSC[C@H](NC(=O)[C@H](CCC(N)=O)NC(=O)[C@H](Cc4ccc(O)cc4)NC(=O)[C@H](CO)NC(=O)[C@H](CCC(=O)O)NC(=O)[C@H](CO)NC1=O)C(=O)N[C@@H](Cc1ccccc1)C(=O)N1CCC[C@H]1C(=O)N[C@@H](C(C)C)C(=O)N3)NC(=O)[C@H](Cc1ccccc1)NC(=O)CNC(=O)[C@H](CC(N)=O)NC(=O)[C@H](C(C)C)NC2=O | Voltage-gated inwardly rectifying potassium channel KCNH2 (KCNH2, Homo sapiens, UniProt Q12809) | ion current, inhibitor, two-electrode voltage clamp |  | pH 7.4, oocytes | IC50 | 0.0805 µM
O=C(O)CCC(NP(=O)(O)OCCC[C@@H](NC(=O)CCC(NC(=O)CCCCCNC(=O)CCCCCNC(=O)c1ccc([18F])cc1)C(=O)O)C(=O)O)C(=O)O (stereo partly drawn) | PC-3 tumour model |  | host not given, lung | intravenous, 2 h, tumour-bearing | tracer uptake | 0.09 %ID/g
C[n+]1ccc(Nc2ccc(O)cc2)c2ccc(Cl)cc21 | BHK-21 DENV2 replicon cells |  |  | 24 h | CC50 | > 100 µM
O=C(O)CCC(NP(=O)(O)OCCC[C@@H](NC(=O)CCC(NC(=O)c1ccc([18F])cc1)C(=O)O)C(=O)O)C(=O)O (stereo partly drawn) | CWR22Rv1 tumour model |  | host not given, bone | intravenous, 1 h, tumour-bearing | tracer uptake | 0.46 %ID/g
COc1ccc(CNc2nc(N3CCC[C@H]3CO)ncc2C(=O)NN)cc1Cl | Salmonella typhimurium |  | TA97a | 125 µg/plate, 48 h | revertant count | 144 ± 12
N=C(N)c1ccc(-c2ccc(-c3ccco3)o2)nc1 | Salmonella typhimurium | mutagenicity, Ames test | TA1535 | 5 or 10 µM, 48 h, pH 7.4, lower tested concentration, together with: rat liver S9 mix | revertant colonies | 14.3 ± 2.1 colonies/plate
O=C(O)CCCC1C2CCCN3CCCC(CN1Cc1ccc(Cl)c(Cl)c1)C23 (stereo not drawn) | HEK293T |  |  |  | CC50 | 200 µM
CCC1CN2CCC3(O)C(=Nc4cccc(OC)c43)C2CC1C(=COC)C(=O)OC (stereo not drawn) | UDP-glucuronosyltransferase, rat | 4-MU glucuronidation, inhibitor | rat liver microsomes | 30 min, pH 7.4, together with: 4-methylumbelliferone 100 µM | IC50 | > 100 µM
COc1cc(C(=O)NCCOCCOCCOCCNC(=O)c2ccc([18F])nc2)ccc1NC(=O)C1NC(CC(C)(C)C)C(C#N)(c2ccc(Cl)cc2F)C1c1cccc(Cl)c1F (stereo not drawn) | SJSA-1 tumour model |  | host not given, kidney | 2 h, tumour-bearing | tracer uptake | 1.73 %ID/g
CC[C@H](C)C(=O)N1CCC(NC(=O)Nc2ccc(OC(F)(F)F)c(F)c2)CC1 |  |  | healthy volunteers | oral, 8 mg, fasted | subjects with adverse events | 7.7%

Some of these lines once more:
SMILES | tested on | test | system | setting | endpoint | value
O=C(O)CCC(NP(=O)(O)OCCC[C@@H](NC(=O)CCC(NC(=O)c1ccc([18F])cc1)C(=O)O)C(=O)O)C(=O)O (stereo partly drawn) | CWR22Rv1 tumour model |  | host not given, bone | intravenous, 1 h, tumour-bearing | tracer uptake | 0.46 %ID/g
